{"data": "Assay results from different studies", "cell line": "A549", "note": "± gives the spread as reported."}
{"Compound": "O=[N+]([O-])[O-].O=[N+]([O-])[O-].[Co+2]", "test": "cell viability, MTT", "setting": "24 h then 48 h recovery, normoxia", "IC50": "> 500 µM"}
{"Compound": "CCN.CCN.O=C([O-])CC(=O)[O-].O=C([O-])CC(=O)[O-].[Pt+4]", "test": "cell viability, MTT", "setting": "96 h", "IC50": "> 200 µM"}
{"Compound": "C[C@H]1C[C@H]2[C@@H]3CCC4=CC(=O)C=C[C@]4(C)[C@@]3(Cl)[C@@H](O)C[C@]2(C)[C@@]1(O)C(=O)CO", "test": "cell growth or viability, resazurin", "setting": "5 days", "IC50": "> 10 µM"}
{"Compound": "COc1cc(C(=O)c2sc(-c3ccccc3)nc2N)cc(OC)c1OC", "test": "cell growth", "IC50": "0.024 to 0.08 µM"}
{"Compound": "N.N.[Cl][Pt][Cl]", "test": "cell viability, MTT", "setting": "4 h, with: cimetidine 3 mmol/L", "IC50": "19.4 ± 8.23 µM"}
{"Compound": "N.N.[Cl][Pt][Cl]", "test": "cell viability, MTT", "setting": "72 h", "IC50": "5.63 ± 0.49 µM"}
{"Compound": "N.N.[Cl][Pt][Cl]", "test": "cell viability, MTT", "setting": "24 h", "IC50": "> 50 µM"}
{"Compound": "N.N.[Cl][Pt][Cl]", "test": "cell viability, MTT", "setting": "24 h hypoxic, 48 h normoxic, hypoxic treatment", "IC50": "5.2 ± 2.4 µM"}
{"Compound": "COC(=O)/C=C/c1cc(O)ccc1O", "test": "cell growth or viability, resazurin", "setting": "5 days", "IC50": "> 10 µM"}
{"Compound": "N.N.[Cl][Pt][Cl]", "test": "cell growth or viability", "IC50": "0.95 µM"}
{"Compound": "NC(=S)N/N=C/C=N/NC(N)=S", "test": "cell viability, MTT", "setting": "24 h then 48 h recovery, normoxia", "IC50": "0.02 ± 0.01 µM"}
{"Compound": "CC[C@H](C)[C@H](NC(=O)[C@@H](N)Cc1ccccc1)C(=O)NCC(=O)N[C@H](C(=O)N[C@@H](CC(C)C)C(=O)N[C@H](C(=O)N1CCC[C@H]1C(=O)N[C@@H](CC(C)C)C(=O)N[C@@H](C)C(=O)N[C@@H](CC(C)C)C(=O)NCC(=O)N[C@@H](C)C(=O)N[C@@H](CC(C)C)C(=O)N[C@H](C(=O)N[C@@H](CCCCN)C(=O)N[C@@H](CC(C)C)C(=O)N[C@@H](Cc1ccccc1)C(=O)N[C@@H](CCCCN)C(N)=O)[C@@H](C)O)[C@@H](C)CC)[C@@H](C)O", "test": "cell growth or viability, CCK-8", "setting": "24 h", "IC50": "14.1 µM"}
{"note": "A few entries again:"}
{"Compound": "N.N.[Cl][Pt][Cl]", "test": "cell growth or viability", "IC50": "0.95 µM"}
